Assay results from different studies.
A part holds a random share of what one study measured.

Block 1
Target: Histone acetyltransferase KAT6A, both winged helices, GST fusion (KAT6A, Homo sapiens, UniProt Q92794, residues 1-181)
Technique: protein binding microarray
Form: double-stranded DNA, one strand shown
Matrix: in vitro
Concentration: not given
Setting: 8-mer, flanks averaged, mean of 2 arrays, mostly near background
Baseline: not given
Direction: higher = stronger binding
Quantity: E-score
Construct (chain): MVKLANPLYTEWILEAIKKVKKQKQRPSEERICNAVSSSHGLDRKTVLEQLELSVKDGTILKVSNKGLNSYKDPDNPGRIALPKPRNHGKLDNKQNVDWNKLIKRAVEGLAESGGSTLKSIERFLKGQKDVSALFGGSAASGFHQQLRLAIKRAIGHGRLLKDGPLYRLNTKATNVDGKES
GGTAGCAC: 0.0428
CGCGTAGC: 0.284
ATACAATA: 0.0213
AACTCGAC: -0.0966

Block 2
Target: RING finger protein unkempt homolog, zinc fingers 1-6, GST-SBP tag (UNK, Homo sapiens, UniProt Q9C0B0, residues 30-357)
Chain of UniProt Q9C0B0 (30-357, looked up): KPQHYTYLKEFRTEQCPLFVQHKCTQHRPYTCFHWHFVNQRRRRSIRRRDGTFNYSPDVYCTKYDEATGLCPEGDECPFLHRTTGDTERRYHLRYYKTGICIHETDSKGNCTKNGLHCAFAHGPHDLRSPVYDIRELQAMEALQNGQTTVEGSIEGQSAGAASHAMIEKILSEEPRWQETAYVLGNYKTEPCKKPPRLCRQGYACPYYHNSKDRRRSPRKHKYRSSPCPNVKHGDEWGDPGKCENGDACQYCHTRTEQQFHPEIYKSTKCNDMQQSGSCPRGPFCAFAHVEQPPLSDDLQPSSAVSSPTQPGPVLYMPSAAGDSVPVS
Technique: RNA Bind-n-Seq
Form: RNA
Matrix: in vitro
Concentration: not given
Setting: RNA with constant flanks, ends assumed
Baseline: input RNA pool
Direction: higher = stronger binding
Quantity: bound/input enrichment
GGGAGUUCUACAGUCCGACGAUCGUGAACACAAUGGACCUUGAGAGAGAUGAACCUCUCAAAAGCACCGGCCCUCAGAUUUCUGUCCGUGAAUUUUCUUGCCACUGCUGCUACGACAUCCUGGUUAACCCCACCACCUUGAACCAACAGAGGAUUGAGCAUCA: 0.289 ratio
GGGAGUUCUACAGUCCGACGAUCUCAAGGAAAACAUCAACUGAAUGUGCAUCUAGUACAGAAAAUUCUUUCGUUGUCAGCAGCCGUUCAGUUUCUAAUACCACUGUUGCUGGAACUCCCCCAUACCCUACAAGUCGGAGGCAACAACAGAGGAUUGAGCAUCA: 0.19 ratio
GGGAGUUCUACAGUCCGACGAUCGAUGAGCAUUCUUAUUUUUUGUUUUGUUUGCCCCAUUUCCUUUUGUGUUUUUAUAGUCUACCGCAUUUUAAAACUGCUGAUGUUGUUUGCAUUAUUUACAGGCUAAAAACUUAGUAGCAUCAACAGAGGAUUGAGCAUCA: 1.74 ratio

Block 3
Target: Sal-like protein 4, full length isoform B (SALL4, Homo sapiens, UniProt Q9UJQ4-2, residues 1-616)
Technique: universal PBM
Form: double-stranded DNA, one strand shown
Matrix: in vitro
Concentration: not given
Setting: 8-mer, flanks averaged, mean of replicates
Direction: higher = stronger binding
Quantity: E-score
ATAAAGAT: 0.312
AACCTCAA: 0.116
GATCGAGC: -0.143
CGGCACAA: -0.179

Further values, each from its own experiment
PhoQ, residues 284 288 289 292 302 303 SACGEM  fold induction (PhoP, residues 12 14 15 18 19 GQAIL (Escherichia coli, UniProt P23836); Sort-seq, item: YFP reporter; E. coli; PhoQ-PhoP variant library, with: 10 µM Mg2+; baseline: high Mg2+ state, higher = stronger signaling): 4.78

Some of these lines once more (block 1):
AACTCGAC: -0.0966
